Assay results from different studies.
Compare with care: the assays were run in different laboratories.
Target: Calcium/calmodulin-dependent protein kinase kinase 1 (CAMKK1, Homo sapiens, UniProt Q8N5S9)

CCn1cc(C(=O)O)c(=O)c2c(N)c(F)c(NC3CCCCC3)cc21 gave an inhibition of 19.9% (kinase activity; 0.1 µM, added: ATP at Km).
COc1cc(Nc2nc(C)cc(-c3cnn4nc(OC)ccc34)n2)cc(C(F)(F)F)c1 gave a remaining activity of 95% (inhibitor; 1 µM; reference: control).
With NC(=O)C[C@H]1CCc2sc3ncnc(O[C@H]4CC[C@H](N5CCOCC5)CC4)c3c21 the inhibition was 4% (enzyme activity, inhibitor; 10 µM).
The inhibition of CN1CCN(Cc2ccc(-c3ccc(CO[C@H]4CCC[C@@H]4NC(=O)c4cc(-c5cnn(C)c5)cnc4N)cc3)cc2)CC1 is reported as 21% (enzyme activity, inhibitor; 0.1 µM).
Cc1ccc(-c2c(/C=C(\C#N)C(=O)NC(C)C)n(CCCO)c3ncnc(N)c23)cc1 gave a remaining binding of 100% (cell-free assay, competition with immobilised ligand; 1 µM).
CC(C)=CC1OC(C)(C)C2C=C3C(=O)C(Cl)=CC(O)C3C3C(O)C4OC4C(=O)C132 (centres unmarked) gave a remaining binding of 96% (cell-free assay, competition with immobilised ligand; 10 µM).
With COc1c(Cl)cccc1Nc1c(-c2ccncc2C#C[C@@]2(C)CCCN2C(=O)/C=C/CN(C)C)[nH]c2c1C(=O)NCC2 the remaining binding was 100% (binding, competition with immobilised ligand; 3 µM).
The remaining binding of COc1cc(Nc2nccc(-c3cnn4nc(OC)ccc34)n2)cc(C(F)(F)F)c1 is reported as 100% (binding, competition with immobilised ligand; 1 µM).
The remaining binding of Nc1ncc2c(n1)-c1c([nH]c3ccc(C4=CCOCC4)cc13)CCC2 is reported as 100% (binding, competition with immobilised ligand; 1 µM).
NC(=O)[C@@H](O)C[C@H]1CCc2sc3ncnc(O[C@H]4CC[C@H](N5CCOCC5)CC4)c3c21 gave an inhibition of 7% (enzyme activity, inhibitor; 10 µM).
With C=CC(=O)Nc1cc(-c2nn(C3CCN(CCNC(=O)[C@H](C)CCC45CC6CC(CC(C6)C4)C5)CC3)c3ncnc(N)c23)ccc1Oc1ccccc1 the inhibition was 13.8% (inhibitor, KiNativ profiling; biochemical; 2 µM).
O=C(Cc1ccc(OCc2ccccc2)cc1)NC1(C(=O)O)CCN(C(=O)c2ccc(-c3cccc(Cl)c3)cc2)CC1 — result for “activity vs control”: 103% (enzyme activity, inhibitor; 10 µM).
The remaining binding of C=CC(=O)N1CCCC(n2c(=O)c3ncccc3n(Cc3ccc(Oc4ccccc4)cc3)c2=O)C1 (centres unmarked) is reported as 100% (cell-free assay, competition with immobilised ligand; 1 µM).
For CN1CC[C@@H](COc2cnc(C#N)cc2-c2ccn3nc(NC(=O)C4CC4)cc3c2)C1, the inhibition was 1% (enzyme activity, inhibitor; 1 µM).
With C=CC(=O)N1Cc2nc(-c3cc(-c4cc(Cl)cnc4Cl)c(F)cc3F)n(-c3ccncn3)c2C1 the inhibition was -6.3% (cell-free assay, inhibitor; 1 µM).
The remaining binding of CCN1CCN(Cc2ccc(C(=O)Nc3ccc(C)c(NCc4cnc5[nH]ccc5c4OC)c3)cc2C(F)(F)F)CC1 is reported as 100% (binding, competition with immobilised ligand; 1 µM).
With Nc1ncc(-c2cc(-c3cnn(CC(F)(F)F)c3)ncc2F)nc1C(=O)NC1CNCC(F)C1 (centres unmarked) the remaining activity was 93% (enzyme activity; 1 µM; reference: DMSO control).
CS(=O)(=O)Nc1cccc(-c2csc3cnc(Nc4ccc(N5CCN(CCCCCOc6cccc7c6C(=O)N(C6CCC(=O)NC6=O)C7=O)CC5)cc4)nc23)c1 (centres unmarked) gave an inhibition of -0.586% (probe labelling, inhibitor, KiNativ chemoproteomics; MOLT-4; 1 µM).
Under “activity vs control”, CNC(=O)C[C@H](Cc1ccc(C#N)cc1)NC(=O)c1cc(-c2ccc(CN[C@H](C)c3ccc(C)cc3)o2)ccc1Cl is recorded as 106% (enzyme activity, inhibitor; 1 µM).
C=CC(=O)N1CCc2ccc(-n3c(=O)ccc4cnc5ccc(-c6cnn(C)c6)cc5c43)cc21 has a remaining binding of 93% (KINOMEscan; 1 µM; reference: DMSO control).
For CNC1C[S+]2CC[S+]3CC[S+](C1)[Ru-4]321([N]=C=S)[n]2c3ccc(OC)cc3c3c4c(c5cc(F)c[n+]1c5c32)C(=O)NC4=O (centres unmarked), the remaining binding was 100% (KinomeScan; 0.1 µM; reference: untreated).
With CNC(=O)C1CCN(c2cc(C)c(F)cc2NC(=O)c2ccc(-c3cc(O)ccc3C)c(C)c2)CC1 the remaining binding was 91% (binding, competition with immobilised ligand; 1 µM).
Cc1cnc2nc1Nc1cccc(c1)COC/C=C/COCc1cc(ccc1OCCN1CCOCC1)N2 gave a remaining binding of 100% (binding; 0.1 µM).

Excerpt of the above:
COc1cc(Nc2nc(C)cc(-c3cnn4nc(OC)ccc34)n2)cc(C(F)(F)F)c1 gave a remaining activity of 95% (inhibitor; 1 µM; reference: control).
The remaining binding of COc1cc(Nc2nccc(-c3cnn4nc(OC)ccc34)n2)cc(C(F)(F)F)c1 is reported as 100% (binding, competition with immobilised ligand; 1 µM).
With CNC(=O)C1CCN(c2cc(C)c(F)cc2NC(=O)c2ccc(-c3cc(O)ccc3C)c(C)c2)CC1 the remaining binding was 91% (binding, competition with immobilised ligand; 1 µM).
